Assay results from different studies.
Protocols differ between the studies behind these lines.
SLC6A4: Sodium-dependent serotonin transporter (SLC6A4, Homo sapiens, UniProt P31645)
UniProt P31645, sequence (whole entry, unmodified, looked up): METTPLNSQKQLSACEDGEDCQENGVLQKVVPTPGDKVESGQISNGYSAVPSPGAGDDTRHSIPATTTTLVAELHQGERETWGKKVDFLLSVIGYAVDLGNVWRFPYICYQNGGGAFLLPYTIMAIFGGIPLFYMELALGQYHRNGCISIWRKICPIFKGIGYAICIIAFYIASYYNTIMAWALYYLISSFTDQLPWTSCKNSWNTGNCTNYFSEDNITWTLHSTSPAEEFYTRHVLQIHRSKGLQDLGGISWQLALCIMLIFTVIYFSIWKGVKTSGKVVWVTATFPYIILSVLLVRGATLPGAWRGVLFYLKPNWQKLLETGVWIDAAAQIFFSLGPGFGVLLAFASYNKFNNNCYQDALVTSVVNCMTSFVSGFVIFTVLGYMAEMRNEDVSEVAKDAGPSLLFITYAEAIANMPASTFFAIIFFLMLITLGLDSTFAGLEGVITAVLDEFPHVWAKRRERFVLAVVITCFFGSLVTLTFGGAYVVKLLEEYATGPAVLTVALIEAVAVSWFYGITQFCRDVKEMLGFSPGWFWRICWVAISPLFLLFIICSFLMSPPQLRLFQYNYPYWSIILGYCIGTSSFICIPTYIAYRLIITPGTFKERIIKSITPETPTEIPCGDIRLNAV

CNC(C)C(=O)c1ccccc1 (stereo not shown) — IC50 (SLC6A4; transporter uptake, inhibitor, radiometric): 29.4 µM
C=C[C@H]1C[N@@]2CC[C@H]1C[C@@H]2[C@@H](O)c1ccnc2ccccc12 — Ki (SLC6A4 (Homo sapiens, UniProt P31645, Y95F); transporter uptake, inhibitor, radiometric): 0.3 µM
CCN1[C@@H](C)[C@H](c2cccc(Cl)c2)OCC1(C)C — IC50 (SLC6A4; transporter uptake, inhibitor, radiometric): 1.5 µM
CCNC(C)C(=O)c1ccc(Cl)cc1 (stereo not shown) — Ki (SLC6A4; ligand displacement, radioligand; cell membranes): 7.9 µM
CCC(NC)C(=O)c1ccc2c(c1)OCO2 (stereo not shown) — Ki (SLC6A4; ligand displacement, radioligand; cell membranes): 10.5 µM
CCN(CC)C(=O)[C@@H]1C=C2c3cccc4[nH]cc(c34)C[C@H]2N(C)C1 — IC50 (SLC6A4; transporter uptake, inhibitor, radiometric): > 10 µM
CCCN1[C@@H](C)[C@H](c2cccc(Cl)c2)OCC1(C)C — IC50 (SLC6A4; transporter uptake, inhibitor, radiometric): 2.9 µM
CCCC(NC)C(=O)c1ccc(C)cc1 (stereo not shown) — IC50 (SLC6A4; transporter uptake, inhibitor, radiometric): 0.532 µM
CCCC(C(=O)c1ccc2c(c1)OCO2)N1CCCC1 (stereo not shown) — Ki (SLC6A4; ligand displacement, radioligand; cell membranes): 1.25 µM
C[C@@H]1NC(C)(C)CO[C@H]1c1cccc(F)c1 — IC50 (SLC6A4; transporter uptake, inhibitor, radiometric): 4.6 µM
